Assay results pooled from the literature.
Each line is one published result; not all experiments were run side by side. Numbers after ± are the reported error. Values after ≈ are worked out from the molar mass of the structure shown.
Organism: Candida albicans

Structure (SMILES) | assay | system | setting | scale | endpoint | result
C#Cc1ccc(O)c(C=NNC(=O)c2ccc(COC)cc2)c1 |  | A39 | unit not given, together with: caspofungin | lower = more synergy | FICI | 1.03
C[C@@H]1[C@H](O)[C@@H](C)/C=C/C=C/C=C/C=C/C=C/C=C/C=C/[C@H](O[C@@H]2O[C@H](C)[C@@H](O)[C@H](N)[C@@H]2O)C[C@@H]2O[C@](O)(C[C@@H](O)C[C@@H](O)[C@H](O)CC[C@@H](O)C[C@@H](O)CC(=O)O[C@H]1C)C[C@H](O)[C@H]2C(=O)O | MTT | CGMCC 2.209 | 48 h, 30 °C |  | biofilm inhibition IC80 | 1000 nM
C#Cc1ccc(O)c(C=NNC(=O)c2ccc(Br)cc2Br)c1 |  | A39 | unit not given, together with: caspofungin | lower = more synergy | FICI | 1.25
C[C@@H]1C[C@@H]([C@H](O)CC2CC(=O)NC(=O)C2)C(=O)[C@@H](C)C1 |  | ATCC 10231 | concentration not given |  | inhibition zone diameter | 14 ± 0.26 mm
C#Cc1cccc(C=NNC(=O)c2ccc(Br)cc2)c1O |  | A39 | unit not given, together with: caspofungin | lower = more synergy | FICI | 1
N=C(N)NCCC[C@H](NC(=O)CN)C(=O)N[C@@H](Cc1c[nH]c2ccccc12)C(=O)N[C@@H](CCCNC(=N)N)C(=O)N[C@@H](Cc1c[nH]c2ccccc12)C(=O)N[C@@H](Cc1c[nH]c2ccccc12)C(=O)N[C@@H](Cc1c[nH]c2ccccc12)C(=O)N[C@@H](CCCNC(=N)N)C(=O)N[C@@H](Cc1c[nH]c2ccccc12)C(=O)N[C@@H](CCCNC(=N)N)C(=O)N[C@@H](Cc1c[nH]c2ccccc12)C(N)=O | broth microdilution | SP3931, RPMI 1640-MOPS | 48 h, 30 °C |  | MIC | 8 µM (≈ 14.5 µg/mL)
CC[C@@H](C)[C@H]1O[C@@H](c2c(O)c(-c3ccccc3)cn(OC)c2=O)[C@H](C)C[C@@H]1C | cell growth | ATCC 90028 |  |  | IC50 | > 20 µg/mL
CC(C)[C@H](NC(=O)[C@H](CCCNC(=N)N)NC(=O)[C@H](Cc1c[nH]c2ccccc12)NC(=O)[C@H](CCCNC(=N)N)NC(=O)[C@H](Cc1c[nH]c2ccccc12)NC(=O)[C@H](Cc1c[nH]c2ccccc12)NC(=O)[C@H](Cc1c[nH]c2ccccc12)NC(=O)[C@H](CCCNC(=N)N)NC(=O)[C@H](Cc1c[nH]c2ccccc12)NC(=O)[C@H](CCCNC(=N)N)NC(=O)CN)C(N)=O | broth microdilution | CGMCC 2.209, RPMI 1640-MOPS | 48 h, 30 °C, together with: MgCl2 1 mM |  | MIC | 8 µM (≈ 13.8 µg/mL)
C#Cc1ccc(C=NNC(=O)c2ccc(Br)cc2Br)c(O)c1 |  | A39 | unit not given, together with: caspofungin | lower = more synergy | FICI | 0.56
CC(=O)N[C@H]1[C@@H](O[C@@H]2O[C@H](C[C@@H](O)[C@H]3O[C@@H](n4ccc(=O)[nH]c4=O)[C@H](O)[C@@H]3O)[C@H](O)[C@H](O)[C@H]2NC(=O)/C=C/CCCCCCCCCC(C)C)O[C@H](CO)[C@@H](O)[C@@H]1O | alamar blue | 18 M |  |  | MIC50 | < 0.1 µg/mL
CC(C)C[C@H](NC(=O)[C@H](CCCNC(=N)N)NC(=O)[C@H](Cc1c[nH]c2ccccc12)NC(=O)[C@H](CCCNC(=N)N)NC(=O)[C@H](Cc1c[nH]c2ccccc12)NC(=O)[C@H](Cc1c[nH]c2ccccc12)NC(=O)[C@H](Cc1c[nH]c2ccccc12)NC(=O)[C@H](CCCNC(=N)N)NC(=O)[C@H](Cc1c[nH]c2ccccc12)NC(=O)[C@@H](N)CCCNC(=N)N)C(N)=O | broth microdilution | alveolar fluid isolate, RPMI 1640-MOPS | 48 h, 30 °C |  | MIC | 16 µM (≈ 27 µg/mL)
CC(=O)N1CCN(c2ccc(OCC3COC(Cn4ccnc4)(c4ccc(Cl)cc4Cl)O3)cc2)CC1 (stereo not shown) |  | 2.209 | over 30 generations serial passaging | relative to: initial MIC | MIC increase | 128 fold
C#Cc1ccc(O)c(C=NNC(=O)c2ccc(Br)c(Br)c2)c1 |  | A39 | unit not given, together with: caspofungin | lower = more synergy | FICI | 2
CC[C@H](C)[C@H](NC(=O)CN)C(=O)NCC(=O)N[C@@H](C)C(=O)N[C@H](C(=O)N[C@@H](CC(C)C)C(=O)N[C@@H](CCCCN)C(=O)N[C@H](C(=O)N[C@@H](CC(C)C)C(=O)N[C@H](C(=O)N[C@H](C(=O)NCC(=O)N[C@@H](CC(C)C)C(=O)N1CCC[C@H]1C(=O)N[C@@H](C)C(=O)N[C@@H](CC(C)C)C(=O)N[C@H](C(=O)N[C@@H](CO)C(=O)N[C@@H](Cc1c[nH]c2ccccc12)C(=O)N[C@H](C(=O)N[C@@H](CCCCN)C(=O)N[C@@H](CCCNC(=N)N)C(=O)N[C@@H](CCCCN)C(=O)N[C@@H](CCCNC(=N)N)C(=O)N[C@@H](CCC(N)=O)C(=O)N[C@@H](CCC(N)=O)C(N)=O)[C@@H](C)CC)[C@@H](C)CC)[C@@H](C)O)[C@@H](C)O)C(C)C)C(C)C | broth microdilution | 14936, RPMI 1640-MOPS | 48 h, 30 °C |  | MIC | 2 µM (≈ 5.69 µg/mL)
CC[C@H](C)[C@H](NC(=O)CN)C(=O)NCC(=O)N[C@@H](C)C(=O)N[C@H](C(=O)N[C@@H](CC(C)C)C(=O)N[C@@H](CCCCN)C(=O)N[C@H](C(=O)N[C@@H](CC(C)C)C(=O)N[C@H](C(=O)N[C@H](C(=O)NCC(=O)N[C@@H](CC(C)C)C(=O)N1CCC[C@H]1C(=O)N[C@@H](C)C(=O)N[C@@H](CC(C)C)C(=O)N[C@H](C(=O)N[C@@H](CO)C(=O)N[C@@H](Cc1c[nH]c2ccccc12)C(=O)N[C@H](C(=O)N[C@@H](CCCCN)C(=O)N[C@@H](CCCNC(=N)N)C(=O)N[C@@H](CCCCN)C(=O)N[C@@H](CCCNC(=N)N)C(=O)N[C@@H](CCC(N)=O)C(=O)N[C@@H](CCC(N)=O)C(N)=O)[C@@H](C)CC)[C@@H](C)CC)[C@@H](C)O)[C@@H](C)O)C(C)C)C(C)C | broth microdilution | SP 3903, RPMI-1640 | 48 h, 30 °C |  | MIC | 4 µM (≈ 11.4 µg/mL)
OC(Cn1cncn1)(Cn1cncn1)c1ccc(F)cc1F |  | Gu5 and G5, BALB/c mice, candidiasis | intraperitoneal, 5 mg/kg, together with: CM-1 20 mg/kg | relative to: vehicle | survival | no effect

Some of these lines once more:
Structure (SMILES) | assay | system | setting | scale | endpoint | result
C[C@@H]1[C@H](O)[C@@H](C)/C=C/C=C/C=C/C=C/C=C/C=C/C=C/[C@H](O[C@@H]2O[C@H](C)[C@@H](O)[C@H](N)[C@@H]2O)C[C@@H]2O[C@](O)(C[C@@H](O)C[C@@H](O)[C@H](O)CC[C@@H](O)C[C@@H](O)CC(=O)O[C@H]1C)C[C@H](O)[C@H]2C(=O)O | MTT | CGMCC 2.209 | 48 h, 30 °C |  | biofilm inhibition IC80 | 1000 nM
C#Cc1ccc(O)c(C=NNC(=O)c2ccc(Br)cc2Br)c1 |  | A39 | unit not given, together with: caspofungin | lower = more synergy | FICI | 1.25
CC(C)[C@H](NC(=O)[C@H](CCCNC(=N)N)NC(=O)[C@H](Cc1c[nH]c2ccccc12)NC(=O)[C@H](CCCNC(=N)N)NC(=O)[C@H](Cc1c[nH]c2ccccc12)NC(=O)[C@H](Cc1c[nH]c2ccccc12)NC(=O)[C@H](Cc1c[nH]c2ccccc12)NC(=O)[C@H](CCCNC(=N)N)NC(=O)[C@H](Cc1c[nH]c2ccccc12)NC(=O)[C@H](CCCNC(=N)N)NC(=O)CN)C(N)=O | broth microdilution | CGMCC 2.209, RPMI 1640-MOPS | 48 h, 30 °C, together with: MgCl2 1 mM |  | MIC | 8 µM (≈ 13.8 µg/mL)
